{"data": "Measured values from different studies", "note": "Every numbered part comes from another study and shows a few of its results, in no order. Changes are numbered by the printed parent chain."}
{"data": "Set 1", "target": "CCNE2, cyclin fold, Cln2 fusion (human)", "technique": "yeast growth competition, sequencing", "sample": "yeast", "notes": "weak parent motif", "reference": "not given", "reading": "higher = stronger binding", "parent": "REV3L docking peptide (human); PPVIIKYIIINRF"}
{"Variant": "PPVIIKYAIINRF [I8A]", "normalised enrichment score": 0.349}
{"Variant": "PAVIIKYIIINRF [P2A]", "normalised enrichment score": 0.599}
{"Variant": "PPAIIKYIIINRF [V3A]", "normalised enrichment score": 0.986}
{"Variant": "PPVIIKYIIINRA [F13A]", "normalised enrichment score": 0.563}
{"Variant": "APVIIKYIIINRF [P1A]", "normalised enrichment score": 0.661}
{"Variant": "PPVIIAYIIINRF [K6A]", "normalised enrichment score": 0.118}
{"Variant": "PPVIAKYIIINRF [I5A]", "normalised enrichment score": 0.574}
{"data": "Set 2", "target": "ABI1, truncated, D143A, DHFR fusion (Arabidopsis thaliana)", "technique": "DHFR PCA, deep sequencing", "sample": "yeast", "notes": "methotrexate growth selection, single substitutions", "added": "(+)-ABA 2500 µM", "reference": "wild-type fitted maximum", "reading": "higher = stronger binding", "parent": "PYL1, truncated, DHFR fusion (Arabidopsis thaliana); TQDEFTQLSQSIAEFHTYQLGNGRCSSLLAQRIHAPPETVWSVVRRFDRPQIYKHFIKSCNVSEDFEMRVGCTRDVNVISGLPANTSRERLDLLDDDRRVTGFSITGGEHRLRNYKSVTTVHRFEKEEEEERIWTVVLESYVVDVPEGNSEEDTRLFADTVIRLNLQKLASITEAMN; partner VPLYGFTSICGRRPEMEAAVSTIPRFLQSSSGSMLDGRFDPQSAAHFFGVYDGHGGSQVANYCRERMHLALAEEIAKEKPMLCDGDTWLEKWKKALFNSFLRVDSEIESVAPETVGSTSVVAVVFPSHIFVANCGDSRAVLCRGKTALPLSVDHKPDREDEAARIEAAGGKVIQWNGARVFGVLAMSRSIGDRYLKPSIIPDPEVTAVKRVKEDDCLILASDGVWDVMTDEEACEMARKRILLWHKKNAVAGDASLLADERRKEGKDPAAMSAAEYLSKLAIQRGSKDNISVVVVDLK"}
{"Variant": "R163K", "relative binding score": "99.9%"}
{"Variant": "P37D", "relative binding score": "84.3%"}
{"Variant": "G81H", "relative binding score": "88.6%"}
{"Variant": "E152W", "relative binding score": "93.6%"}
{"Variant": "T173A", "relative binding score": "96.8%"}
{"Variant": "T160I", "relative binding score": "87.4%"}
{"Variant": "C25T", "relative binding score": "98.7%"}
{"Variant": "R111N", "relative binding score": "80.7%"}
{"Variant": "D95S", "relative binding score": "91.1%"}
{"Variant": "G71H", "relative binding score": "87.5%"}
{"Variant": "T119D", "relative binding score": "25.8%"}
{"Variant": "N149A", "relative binding score": "86.4%"}
{"Variant": "T86M", "relative binding score": "93.8%"}
{"Variant": "F15W", "relative binding score": "103%"}
{"data": "Set 3", "target": "Histone acetyltransferase KAT6A, both winged helices, GST fusion (KAT6A, Homo sapiens, UniProt Q92794, residues 1-181)", "technique": "protein binding microarray", "form": "double-stranded DNA, one strand shown", "sample": "in vitro", "concentration": "not given", "notes": "8-mer, flanks averaged, mean of 2 arrays, mostly near background", "reference": "not given", "reading": "higher = stronger binding", "Target sequence (chain)": "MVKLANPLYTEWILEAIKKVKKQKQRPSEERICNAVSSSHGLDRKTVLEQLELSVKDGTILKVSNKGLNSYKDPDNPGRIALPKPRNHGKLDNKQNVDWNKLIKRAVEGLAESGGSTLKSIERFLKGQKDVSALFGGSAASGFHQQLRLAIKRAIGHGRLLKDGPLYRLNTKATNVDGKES"}
{"Sequence": "CGGGATAC", "E-score": 0.211}
{"Sequence": "AACTCCCT", "E-score": -0.2}
{"Sequence": "AGATCAGA", "E-score": -0.0391}
{"Sequence": "AACCGATG", "E-score": 0.0542}
{"Sequence": "ACGGGTCA", "E-score": 0.169}
{"Sequence": "TGCAAAAA", "E-score": -0.0768}
{"Sequence": "GTGGCCAC", "E-score": -0.0445}
{"Sequence": "CGACGTAG", "E-score": -0.0137}
{"Sequence": "TCCGGCAA", "E-score": 0.0804}
{"Sequence": "AGATCATC", "E-score": -0.078}
{"Sequence": "CGACTGAA", "E-score": 0.125}
{"Sequence": "AAGGATAG", "E-score": -0.213}
{"Sequence": "CTTATATC", "E-score": -0.077}
{"Sequence": "CTTTAGCA", "E-score": -0.207}
{"Sequence": "ATGTAGCG", "E-score": 0.154}
{"Sequence": "TATGTCGA", "E-score": 0.018}
{"Sequence": "ACTCAATC", "E-score": -0.162}
{"Sequence": "AAAACAAG", "E-score": -0.0375}
{"data": "Set 4", "target": "Sal-like protein 4, full length isoform A (SALL4, Homo sapiens, UniProt Q9UJQ4, residues 1-1053)", "technique": "universal PBM", "form": "double-stranded DNA, one strand shown", "sample": "in vitro", "concentration": "600 nM", "notes": "8-mer, flanks averaged, mean of replicates", "reading": "higher = stronger binding", "chain of UniProt Q9UJQ4 (whole entry, looked up)": "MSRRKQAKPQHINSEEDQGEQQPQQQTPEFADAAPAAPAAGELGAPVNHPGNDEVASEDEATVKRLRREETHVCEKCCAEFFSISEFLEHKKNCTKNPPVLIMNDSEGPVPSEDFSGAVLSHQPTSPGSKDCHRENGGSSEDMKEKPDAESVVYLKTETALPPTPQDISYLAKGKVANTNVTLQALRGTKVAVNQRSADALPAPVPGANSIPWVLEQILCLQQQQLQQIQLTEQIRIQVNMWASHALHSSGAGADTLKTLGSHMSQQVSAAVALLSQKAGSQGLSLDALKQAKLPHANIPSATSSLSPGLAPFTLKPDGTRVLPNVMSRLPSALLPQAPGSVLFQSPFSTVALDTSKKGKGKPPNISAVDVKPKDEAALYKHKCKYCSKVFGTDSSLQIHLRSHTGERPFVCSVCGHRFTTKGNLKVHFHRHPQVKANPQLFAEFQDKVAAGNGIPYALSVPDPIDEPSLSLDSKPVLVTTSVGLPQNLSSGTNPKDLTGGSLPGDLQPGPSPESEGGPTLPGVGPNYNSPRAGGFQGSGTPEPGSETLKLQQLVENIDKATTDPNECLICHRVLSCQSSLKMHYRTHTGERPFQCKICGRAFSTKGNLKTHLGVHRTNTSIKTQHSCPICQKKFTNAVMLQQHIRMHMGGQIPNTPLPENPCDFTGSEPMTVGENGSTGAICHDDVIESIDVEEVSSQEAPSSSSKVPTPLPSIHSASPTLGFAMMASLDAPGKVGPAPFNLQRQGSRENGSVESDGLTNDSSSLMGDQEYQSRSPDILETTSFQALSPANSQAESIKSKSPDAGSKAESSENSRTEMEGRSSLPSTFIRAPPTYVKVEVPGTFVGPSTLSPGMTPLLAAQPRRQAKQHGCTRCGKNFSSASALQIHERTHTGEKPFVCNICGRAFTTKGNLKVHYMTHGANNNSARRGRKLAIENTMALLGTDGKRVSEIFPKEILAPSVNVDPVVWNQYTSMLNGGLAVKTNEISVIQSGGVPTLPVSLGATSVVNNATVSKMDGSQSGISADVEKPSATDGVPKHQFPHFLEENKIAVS"}
{"Sequence": "CTGCTTTA", "E-score": 0.122}
{"Sequence": "CACAAATA", "E-score": 0.326}
{"Sequence": "AGGCGGCG", "E-score": -0.308}
{"Sequence": "AATGGCGA", "E-score": 0.076}
{"Sequence": "ATACTTTA", "E-score": 0.356}
{"Sequence": "CGCAGCCG", "E-score": -0.283}
{"Sequence": "CGGCCTGC", "E-score": -0.372}
{"Sequence": "CTTTTTGA", "E-score": 0.193}
{"Sequence": "ATGCCGTC", "E-score": -0.136}
{"Sequence": "GATCAGAC", "E-score": -0.0682}
{"Sequence": "AATCTCAA", "E-score": 0.0604}
{"Sequence": "ACTCCTAG", "E-score": -0.158}
{"Sequence": "AGTGCCAT", "E-score": 0.0126}
{"Sequence": "CCCGCCCG", "E-score": -0.32}
{"Sequence": "CGTGGCGA", "E-score": -0.239}
{"Sequence": "AGGCCCGA", "E-score": -0.373}
{"Sequence": "ACTGGTTG", "E-score": -0.0921}
{"note": "Some of these lines once more (set 1):"}
{"Variant": "PPVIIKYIIINRA [F13A]", "normalised enrichment score": 0.563}
{"Variant": "PPVIIAYIIINRF [K6A]", "normalised enrichment score": 0.118}
{"Variant": "PAVIIKYIIINRF [P2A]", "normalised enrichment score": 0.599}
{"Variant": "APVIIKYIIINRF [P1A]", "normalised enrichment score": 0.661}
{"Variant": "PPVIIKYAIINRF [I8A]", "normalised enrichment score": 0.349}
{"Variant": "PPVIAKYIIINRF [I5A]", "normalised enrichment score": 0.574}
{"Variant": "PPAIIKYIIINRF [V3A]", "normalised enrichment score": 0.986}
